Results gathered from unrelated publications.
Parts stem from different laboratories: compare values within a part only. Positions count from the first letter of the parent shown.

Series 1 — technique: competition protein-binding microarray; molecule type: double-stranded DNA, one strand shown; matrix: in vitro; tested at: 2 µM; with: Cbf1 competitor, 0.05 µM; direction: higher = stronger binding
Target: Phosphate system positive regulatory protein PHO4, full length, GST-tagged (PHO4, Saccharomyces cerevisiae, UniProt P07270, residues 1-312)
Notes: whole 60-bp probe, lowest competitor level
Construct (chain): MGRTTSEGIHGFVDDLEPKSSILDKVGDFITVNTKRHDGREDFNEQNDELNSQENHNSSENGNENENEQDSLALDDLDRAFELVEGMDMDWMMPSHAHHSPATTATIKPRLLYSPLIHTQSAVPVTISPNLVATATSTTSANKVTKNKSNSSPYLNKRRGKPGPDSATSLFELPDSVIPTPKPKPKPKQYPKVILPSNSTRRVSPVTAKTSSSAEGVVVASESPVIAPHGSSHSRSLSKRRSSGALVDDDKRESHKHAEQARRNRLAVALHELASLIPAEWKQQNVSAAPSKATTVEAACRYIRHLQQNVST
Oligonucleotide | fluorescence intensity [a.u.]
GTCAACAACAACAACCTCGTGACAAATAGTTTGTAAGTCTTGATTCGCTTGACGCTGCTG | 10900
TTGTAAGGCTGTACCCACGTCTTGAAAGGCAATCTGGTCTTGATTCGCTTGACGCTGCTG | 5890
AAAGCGGTAATTTTTCACGTGCTTTCACATATCTATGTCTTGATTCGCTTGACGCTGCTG | 15900
TGGATACATTGAAGCTGCGTGACGGATTGGCCTCGGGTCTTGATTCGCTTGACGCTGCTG | 6210
CATACCCAACCTTGAAAAGTGGGTGAAGATATTTGTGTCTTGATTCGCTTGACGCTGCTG | 3390
CTTCTGTAAATTTTTCACGTGGTTTGACGCGCCCCGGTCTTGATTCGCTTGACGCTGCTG | 11200
GTCTTGTCTCATTGGACTGTGGGTGTCCCCACTTCAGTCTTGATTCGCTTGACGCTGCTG | 4100
ATAAGAACGCTACCAAACGTGGTAACTTGTCCGTCAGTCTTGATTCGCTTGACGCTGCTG | 11000
TGGAATAACAGTTGGCATGTGCCCACTGTATTCATGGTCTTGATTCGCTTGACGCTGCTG | 12200
CTTTTAGGAATCCATCACGTGATGGGGATATCTACGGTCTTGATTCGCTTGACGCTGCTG | 14700
TGCGCAACAACTTGATGGGTGGGTGTATGTCTAGAAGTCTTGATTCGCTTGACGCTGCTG | 5430
TGATTGAAAACCAACAATGTGACAGTGAAAACAACAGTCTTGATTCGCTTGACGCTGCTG | 6170
CTTCTGTAAATTTGGTCCGTGGGTGGACGCGCCCCGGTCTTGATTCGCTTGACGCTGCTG | 6480
GTCTTGTCTCATTGTCACGTGTTTTTCCCCACTTCAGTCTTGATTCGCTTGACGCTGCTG | 14400
TATTCAGCCAGTTTGTATATATGAGAATTAAACGTTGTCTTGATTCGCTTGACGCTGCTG | 4190
TAACCCAGTTGTAACCAGATGGAGTCATTCTACCGGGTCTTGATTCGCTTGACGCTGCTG | 2720
CGTCCTAGTGATTGTTCGGTGGGTGCCATGAGGAAGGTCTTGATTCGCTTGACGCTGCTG | 6870
AAATTACTAAGTTTTCACGTGTTTTACCCCGTATGAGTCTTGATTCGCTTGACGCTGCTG | 15200

Series 2 — technique: protein binding microarray; molecule type: double-stranded DNA, one strand shown; matrix: in vitro; tested at: not given; reference: not given; direction: higher = stronger binding
Target: Histone acetyltransferase KAT6A, winged helix 2, GST fusion (KAT6A, Homo sapiens, UniProt Q92794, residues 85-181)
Notes: 8-mer, flanks averaged, mean of 2 arrays, mostly near background
Target sequence (chain): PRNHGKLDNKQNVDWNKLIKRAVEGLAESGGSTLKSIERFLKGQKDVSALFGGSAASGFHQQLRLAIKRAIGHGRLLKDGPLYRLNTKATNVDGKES
Oligonucleotide | E-score
CCGCGCTA | 0.22
CCTGGGAC | 0.0246
ACATCAAA | 0.0771
AATAGCTG | -0.00869
ATCACACG | -0.149
GAACCAAC | 0.0917
GATATGGC | -0.173
ATGCTACA | -0.0645
AAACCGGT | -0.127
AGGCCTTG | -0.0898
GGCCTTGA | 0.109
GTTGCATA | 0.084
AGCAAGGC | 0.13
ACATAACC | -0.106
CCCGAGTA | -0.0191
AAGGTGCA | -0.0771
CTCGTAAA | -0.0449
AGGCTTCC | 0.113
GAAAGACA | 0.0592
GATCGACC | 0.203

Series 3 — target: CRIPT, C-terminal peptide; technique: DHFR complementation, deep sequencing; matrix: yeast; reference: wild type; direction: higher = weaker binding
Notes: single substitutions, model-inferred values
Parent: ERBIN, PDZ domain 1 (human); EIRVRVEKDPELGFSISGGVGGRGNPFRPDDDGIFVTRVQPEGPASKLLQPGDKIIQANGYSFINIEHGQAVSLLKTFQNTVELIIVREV; partner TKNYKQTSV
Variant | binding free energy change
S15R | 1.1 kcal/mol
P44V | 1.04 kcal/mol
F35S | 0.625 kcal/mol
G33I | 0.501 kcal/mol
D31K | 1.14 kcal/mol
S73V | 0.0354 kcal/mol
P26T | 0.881 kcal/mol
G13K | 0.557 kcal/mol
K8V | 1.31 kcal/mol
V90C | -0.109 kcal/mol
E42S | 0.0477 kcal/mol
N59V | 0.322 kcal/mol
R3V | -0.254 kcal/mol
G60W | 0.101 kcal/mol
L48K | -0.0324 kcal/mol
V4I | -0.0534 kcal/mol
G52Q | 0.674 kcal/mol

Series 4 — technique: aptamer microarray, sandwich; molecule type: DNA with 2'F-ANA; matrix: in vitro; tested at: 200 nM; with: Cy3 exosite-II aptamer, 400 nM; direction: higher = stronger binding; oligonucleotide: GGTTGGTGTGGTTGG
Target: Prothrombin, mature alpha-thrombin (F2, Homo sapiens, UniProt P00734)
Notes: whole 15-mer aptamer, many near background
Modification | mean fluorescence intensity [a.u.]
2'F-ANA at 3 4 6 7 9 10 11 13 15 | 181
2'F-ANA at 1 9 10 11 15 | 53.3
2'F-ANA at 1 5 8 9 11 13 15 | 50.6
2'F-ANA at 1 2 10 11 12 13 14 15 | 73.5
2'F-ANA at 1 3 5 6 8 9 10 13 14 15 | 46.8
2'F-ANA at 1 2 3 4 6 9 10 11 13 | 55.7
2'F-ANA at 4 5 6 8 10 11 14 | 46.8
2'F-ANA at 2 4 5 8 9 11 12 13 14 15 | 49.2
2'F-ANA at 2 3 7 8 14 | 457
2'F-ANA at 1 4 5 7 9 11 14 15 | 74.6
2'F-ANA at 1 2 3 4 5 11 12 14 15 | 43.2
2'F-ANA at 2 4 5 6 7 9 12 14 | 49.3
2'F-ANA at 1 5 6 8 9 10 11 12 13 15 | 52.7
2'F-ANA at 1 5 6 7 9 11 15 | 59.1
2'F-ANA at 2 3 5 9 | 116
2'F-ANA at 1 3 5 11 12 15 | 102
2'F-ANA at 1 2 4 5 7 9 13 14 15 | 46.5
2'F-ANA at 2 3 4 6 8 9 10 11 12 13 15 | 186

Series 5 — target: CCNE1, cyclin fold, Cln2 fusion (human); technique: yeast growth competition, sequencing; matrix: yeast; notes: strong parent motif; reference: not given; direction: higher = stronger binding
Parent: BRCA2 docking peptide (human); PSIKRNLLNEFDR
Variant | normalised enrichment score
P1N | 2.1
K4C | 3.59
N9S | 1.94
R13V | 1.96
R13S | 2.58
F11M | 1.12
F11P | -0.463
L8D | 0.31
N6L | 0.499
S2T | 1.51
L8Q | -0.0864
F11H | 0.128
R13K | 0.929
N6M | 0.419
I3V | 5.44
K4S | 0.242
P1A | 1.32
D12G | 1.15
L7F | -0.0788
N6I | 0.147
R13M | 1.97
K4D | -0.201
I3F | 4.56
R13T | 2.04
K4N | 0.513

Series 6 — technique: RNAcompete; molecule type: RNA; matrix: in vitro; tested at: 20 nM; notes: 7-mer, probes averaged, single round; reference: mean of 7-mers; direction: higher = stronger binding
Target: PABPC1L2, full length, GST fusion (mouse, UniProt A0ABA7IW68)
Residues (chain): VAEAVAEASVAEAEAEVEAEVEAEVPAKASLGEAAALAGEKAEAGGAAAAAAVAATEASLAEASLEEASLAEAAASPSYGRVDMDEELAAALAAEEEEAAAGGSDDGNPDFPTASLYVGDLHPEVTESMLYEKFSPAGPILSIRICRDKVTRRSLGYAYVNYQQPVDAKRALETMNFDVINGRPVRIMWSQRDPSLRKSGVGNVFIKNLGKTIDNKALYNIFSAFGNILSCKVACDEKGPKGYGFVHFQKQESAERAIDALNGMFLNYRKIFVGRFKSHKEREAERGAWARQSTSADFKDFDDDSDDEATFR
Oligonucleotide | 7-mer Z-score
GCUUCUA | -0.235
GCAUCGG | 0.0116
AACUCCU | -0.219
CCCCGGG | -0.436
UCAGCAU | -0.209
GAACUAC | -0.146
UCGUCGG | -0.3
GCAAGAU | 0.142
CGACAAA | 0.802
GGCAUAG | -0.0699
AGUUAAU | -0.142
CUGAGGC | -0.142
GGUGCCG | -0.0844
CAUUUAC | 0.0859
AGCUCUU | -0.309
GGCAAUG | 0.138
GGCGCCG | -0.284
UACAUGU | -0.0844
GCAAGUC | -0.338

Mixed results
Molecule | target | assay | test system | conditions | scale | quantity | result
PhoQ, residues 284 288 289 292 302 303 WVSSAF | PhoP, residues 12 14 15 18 19 LYHSL (Escherichia coli, UniProt P23836) | Sort-seq, measured: YFP reporter | E. coli | PhoQ-PhoP variant library, with: 10 µM Mg2+ | reference: high Mg2+ state, higher = stronger signaling | fold induction | 1.45

A few entries again (series 6):
Oligonucleotide | 7-mer Z-score
CCCCGGG | -0.436
UCAGCAU | -0.209
GAACUAC | -0.146
UCGUCGG | -0.3
GCAAGAU | 0.142
CGACAAA | 0.802
GGCAUAG | -0.0699
AGUUAAU | -0.142
CUGAGGC | -0.142
GGUGCCG | -0.0844
CAUUUAC | 0.0859
AGCUCUU | -0.309
GGCAAUG | 0.138
GGCGCCG | -0.284
UACAUGU | -0.0844
GCAAGUC | -0.338
